Assay results pooled from the literature.
Each numbered part is a random draw from the data of one study; scales do not carry over between parts. Substitutions count along the parent as printed.

Set 1
Target: Prothrombin, mature alpha-thrombin (F2, Homo sapiens, UniProt P00734)
Technique: aptamer microarray, sandwich
Form: DNA with 2'F-ANA
Medium: in vitro
Concentration: 200 nM
Setting: whole 15-mer aptamer, many near background
Added: Cy3 exosite-II aptamer, 400 nM
Reading: higher = stronger binding
Strand: GGTTGGTGTGGTTGG
Modification | mean fluorescence intensity [a.u.]
2'F-ANA at 1 3 10 11 12 13 14 15 | 62.3
2'F-ANA at 2 3 7 8 9 10 14 15 | 304
2'F-ANA at 1 3 6 8 10 12 13 15 | 119
2'F-ANA at 1 2 3 4 6 7 9 12 | 303
2'F-ANA at 1 2 4 6 7 8 9 12 13 15 | 221
2'F-ANA at 1 2 4 5 7 9 12 | 105
2'F-ANA at 1 2 5 6 7 8 10 11 12 14 | 56.4
2'F-ANA at 3 5 11 12 13 | 192
2'F-ANA at 1 5 9 10 11 12 13 | 53
2'F-ANA at 10 11 12 15 | 186
2'F-ANA at 1 4 5 6 9 12 | 105
2'F-ANA at 1 2 4 5 6 7 10 11 14 15 | 46
2'F-ANA at 1 6 7 8 11 13 14 | 58.3
2'F-ANA at 1 4 6 9 11 14 15 | 48.4
2'F-ANA at 5 6 11 12 13 14 15 | 47.4
2'F-ANA at 1 2 4 5 6 8 10 11 12 15 | 48.9
2'F-ANA at 1 3 4 9 11 12 14 15 | 71.8
2'F-ANA at 3 4 5 6 7 11 13 14 | 59.1
2'F-ANA at 1 2 6 8 9 10 13 15 | 55
2'F-ANA at 1 2 3 7 10 12 14 15 | 60.7
2'F-ANA at 2 6 7 12 15 | 686
2'F-ANA at 2 3 4 5 8 12 | 239
2'F-ANA at 1 2 4 8 9 10 11 13 14 | 70
2'F-ANA at 5 9 11 | 63.6
2'F-ANA at 3 4 5 9 10 15 | 66.2

Set 2
Target: RING finger protein unkempt homolog, zinc fingers 1-6, GST-SBP tag (UNK, Homo sapiens, UniProt Q9C0B0, residues 30-357)
Technique: RNA Bind-n-Seq
Form: RNA
Medium: in vitro
Concentration: not given
Setting: RNA with constant flanks, ends assumed
Baseline: input RNA pool
Reading: higher = stronger binding
Target sequence (chain): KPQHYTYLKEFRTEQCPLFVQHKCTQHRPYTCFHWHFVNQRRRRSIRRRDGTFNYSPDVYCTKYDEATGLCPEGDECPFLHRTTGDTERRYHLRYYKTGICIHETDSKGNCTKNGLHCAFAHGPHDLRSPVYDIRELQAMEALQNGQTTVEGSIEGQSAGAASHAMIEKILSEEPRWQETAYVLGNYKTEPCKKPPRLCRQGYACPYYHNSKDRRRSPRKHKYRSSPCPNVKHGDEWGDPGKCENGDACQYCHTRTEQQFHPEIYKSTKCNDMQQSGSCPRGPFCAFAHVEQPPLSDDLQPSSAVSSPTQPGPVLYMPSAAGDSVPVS
Strand | bound/input enrichment
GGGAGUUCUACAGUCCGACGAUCUUUCAUGCCCGGCCUUUGUUCCCCCCGUCCAUGUGUCCUUUAGUUUCAAACAGAUCUUUACCGUUUGUGCUUCAUAAGCCAAUUCUUAUUAUGAUUUUGGGGGACUGUUCUUCAAAGAGCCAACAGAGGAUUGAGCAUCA | 0.447 ratio
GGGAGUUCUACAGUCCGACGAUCGGCUUUAUUCUGUGCCAUGGGAUGCUAAAUACGGAGGCUACCGCACUGAACCUUUGGAAGCCCGCUCUUCAGAGUAGCUCUUGCCUCUCUCUCUUUCGGGAUGAAGUUUUCCACAUUCACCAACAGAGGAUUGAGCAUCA | 0.0739 ratio
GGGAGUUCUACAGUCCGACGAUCAAAUGUACAGAAUCUGAAGAAGAAGAAGUCACCAAAGGAAAGGAAAAUCAACUUCAGCUCCGCUGUUUUAUCAAUCAGGAAGUCAAGUAUCUUUUUACAGGACUUAAAUUGCGACUUCAGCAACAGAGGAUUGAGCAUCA | 0.115 ratio
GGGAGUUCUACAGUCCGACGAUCUUGCCCAGAUAGGGUCCCCUUCUCAUUCACAAAGUGCCCCCUCCAUGUCCCUGGACCCUCCGGAUACCCCCUGGGGCCCCCAAGUCAGAGACUGUCUGACUCAGGUUAUGCCUACAGAGUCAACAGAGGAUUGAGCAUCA | 0.269 ratio
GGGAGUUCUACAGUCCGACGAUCUUCCCUGAAUUUCUGACAAUGAUGGCAAGAAAAAUGAAAGACACAGACAGUGAAGAAGAGAUCCGAGAAGCAUUCCGUGUGUUUGAUAAGGAUGGCAAUGGCUAUAUUAGUGCAGCAGAGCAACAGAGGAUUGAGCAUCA | 0.372 ratio
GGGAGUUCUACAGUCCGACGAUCUCCAGAAUACACCAAAAAAAUAGAAAACCUAUGUGCUAUGGGCUUUGAUAGGAAUGCAGUAACCGUGGCCUUGUCUUCAAAAUCAUGGGAUGUAGAGACUGCAACAGAAUUGCUUCUGAGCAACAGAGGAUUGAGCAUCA | 0.98 ratio
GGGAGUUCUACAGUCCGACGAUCCUGAAAGUUCUGGCCACUGCAUUUGACACGACAUUGGGAGGUAGAAAAUUUGAUGAAGUGUCCGUAAAUCACUUCUGUGAAGAAUUUGGGAAGAAAUACAAGCUAGACAUUAAGUCCAAACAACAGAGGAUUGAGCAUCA | 0.41 ratio
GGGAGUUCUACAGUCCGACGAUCAAAAUAGUCCGAUGCCAUGAACAUAUAGAAAUCCUUACAGUAAAUGGAGAAUUACUCUUUUUCCGACAAAGAGAAGGGCCUUUUUAUCCAACCCUAAGAUUACUUCACAAAUAUCCUUUUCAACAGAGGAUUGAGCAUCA | 0.376 ratio
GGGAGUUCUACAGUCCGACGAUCAACUUUGUACAUAGAUUUCCUUUUGUAGCUGUUUCAAUUGGCUUUGCUGUAAAUAAAAAGACCGAAUUUGGAGUUGUGUACAGUUGUGUGGAAGGCAAGAUGUACACUGCCAGAAAAGGACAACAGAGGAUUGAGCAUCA | 0.778 ratio
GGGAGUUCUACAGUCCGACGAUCAGCCUGUGUGUAAAAUCCAGCUUGACUGCACCCCCCCUUUUUUGUUUCACUGUUUUCCCGUUCCGAAAUCUCAGAACUAACUAAUUUUACAGAACUUUUCUUAAUUUGCUCAUCAUGUUUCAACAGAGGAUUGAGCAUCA | 2.05 ratio
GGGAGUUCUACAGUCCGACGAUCAUGUCCUUUCCUGUGGAUAGUGUUGACAUAGGAUUCAGGAAUCAGGUUGAUGACAUCCGCCGCUUUUUGGAUUCCAGACAUCUUGACCACUACACAGUAUACAACUUGUCACCCAAGUCUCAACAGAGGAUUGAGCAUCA | 0.162 ratio

Set 3
Target: RNA binding protein fox-1 homolog 2, RRM domain, GST-SBP tag (RBFOX2, Homo sapiens, UniProt O43251-10, residues 100-194)
Technique: RNA Bind-n-Seq
Form: RNA
Medium: in vitro
Concentration: 365 nM
Setting: natural RNA segment, single round, ends assumed
Baseline: no-protein control
Reading: higher = stronger binding
Residues (chain): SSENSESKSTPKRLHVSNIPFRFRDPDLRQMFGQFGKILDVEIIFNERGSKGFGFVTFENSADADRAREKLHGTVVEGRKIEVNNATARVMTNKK
Strand | RBNS enrichment (R)
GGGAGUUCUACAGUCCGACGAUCGUCUUCAUGGACUUUUGGGGUUUCUUAGUGUUGGAUUUUUGGGGUUUCUCAUUUACUUUUUACUCUUAAUACUAAUGCUUAUGUGUUUCACUGAGUAUCAAAACUGCCAAUGGAAUUCUCGGGUGCCAA | 0.442
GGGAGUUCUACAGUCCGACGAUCAAAUCCAAUUCUAACCUAAGAACUGGGAUUCUUCUGUCAUCUUGUAAACCGUAUAUUGAAAAAAACAGAAUGUCACUAAAUGCAUAUUAAGUCAAGUAUUGGAAAGUAUAUGGAAUUCUCGGGUGCCAA | 1.01
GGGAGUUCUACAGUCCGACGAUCAUGUUUUAGCUUCUAAAGACAAAAAUAUAGUGUUUUUAGCUUUUAGUUAAACUUUAUAAUUCUUUGCAAUUUUUAAGUAUUUUAAACUAAAUAUGCAAGGUUUGUUCUAUUGGAAUUCUCGGGUGCCAA | 0.58
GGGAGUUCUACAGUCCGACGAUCCCCUUGGCUCCCUUGGGCAGACAGCAGGCUUAGGCCAUUGAUAUCGCAGUUCUUCCUAUCAGCUUCAGUGACCCAGGGUCUGAACUGCCUCCAUCCUAGGGCAACCUGGGUGGAAUUCUCGGGUGCCAA | 0.247
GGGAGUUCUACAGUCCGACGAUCAAGUGCAUUUAAUAUUGGUAAUUUAAUGAAAAGCAUUCCUUGCCCAAUGGAUGUAAACAUUUUUGAAAGAAUAAAGCAGAAUUAUAUAAUAUGAAAUGCUAUGUAAAGUUUGGAAUUCUCGGGUGCCAA | 0.665
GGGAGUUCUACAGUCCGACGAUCGCUGGCAGUAGCUGUCCCAGCCUCAGCUCCUGGCCCGGUCCUGGGGUUCCCUCUUCACAGUCCCCGUUCCCACACUUCCUCCACCAUCACUCACUCACUGGUGCUGGCCUUGGAAUUCUCGGGUGCCAA | 0.811
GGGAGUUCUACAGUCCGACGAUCUUUCAUUCCCAGAUCCUAAAAUGUUGAAAGAGUGGGAGAAGUUCCAAGAGGAAGCUAAAAACCGAGAUCAUAGGAAAAUUGGCAGGGACCAAGAACUAUAUUUCUUUCAUUGGAAUUCUCGGGUGCCAA | 0.384
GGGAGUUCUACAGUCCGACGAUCAGACAUAGUUUUACUGCCCCCUUUUUAGCUCAUGGGAUUUCCUGUUUACAGGUAGCAAUAGUCAAUUAUUUAACUACUUAGUUGCCACCAGGAGUCACUGAGCCAAUGACUGGAAUUCUCGGGUGCCAA | 0.226
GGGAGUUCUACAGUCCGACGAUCUCACAGUGUGGUCAGGGCUGCGCGUGCUGGAGGCCCUCCUGCCUGGGCCUUGUGGGGCAAAUAUUGGGUCCCCAGGCUGGAAAGAUGGACAGAGGCCCAAUGGGUGAAGGUGGAAUUCUCGGGUGCCAA | 1.05
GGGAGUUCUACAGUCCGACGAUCUCUAAAUAAAACUUCCCCUAGCACUGUGGCUGACCUCACCCUUACUUUUAUACUUUAGUAUGAAACUGAUGAGAACUUUGGUAGUGAGUAUUUUUUUUAUAUAUAUACAUUGGAAUUCUCGGGUGCCAA | 0.591
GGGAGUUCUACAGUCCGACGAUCCAGCUGGCCGGCACAACAGGUGUUACAUCAGGGGUUUCCUGUGGCCGUUUGAACUUUGAGCAUUUAUCUAAAUUAAAUUGGCCCAGGGUUGGCUGGUGGGUCACCCAGCAUGGAAUUCUCGGGUGCCAA | 15.3
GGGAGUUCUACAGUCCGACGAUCUAGAAAUUUUGUAAUGUAGAGUUUUAGAGAGAGCACUUUGAAAGAUAAACAUUUUAUUAUGAUGGUGCUAGGUACAAAAUUUAUAGCAUGGGAUGUGAAGAAAAAAAAUGUGGAAUUCUCGGGUGCCAA | 10.8

Set 4
Target: CCNE2, cyclin fold, Cln2 fusion (human)
Technique: yeast growth competition, sequencing
Medium: yeast
Setting: strong parent motif
Baseline: not given
Reading: higher = stronger binding
Starting sequence: CDKN1A docking peptide (human); SKACRRLFGPVDS
Change | normalised enrichment score
P10D | 5.04
R5S | 0.105
K2L | 2.29
K2M | 2.9
R5M | 0.213
R5Q | 0.202
K2H | 4.29
C4R | 4.87
F8K | 0.244
D12W | 2.4
A3R | -0.039
L7G | 0.156
C4S | 0.819
D12N | 3.32
R5F | 0.54
G9H | 3.77
K2R | 3.44
P10Q | 2.85

A few entries again (set 1):
Modification | mean fluorescence intensity [a.u.]
2'F-ANA at 2 6 7 12 15 | 686
2'F-ANA at 1 2 3 7 10 12 14 15 | 60.7
2'F-ANA at 5 6 11 12 13 14 15 | 47.4
2'F-ANA at 2 3 7 8 9 10 14 15 | 304
2'F-ANA at 1 2 4 5 6 7 10 11 14 15 | 46
